{"data": "Results of several laboratories", "note": "Protocols differ between the studies behind these lines. ± gives the spread as reported."}
{"SMILES": "C=C(NC(=O)c1csc(-c2nc3c(cc2O)-c2nc(cs2)C(=O)NC(C(C)O)C(=O)NC(=C(C)OC)c2nc(cs2)C(=O)NC2c4nc(cs4)C(=O)NC(COC(=O)c4c5c6c(cccc6n4O)COC(=O)C(OC4CC(C)(O)C(N(C)C)C(C)O4)C2OC5)c2nc-3cs2)n1)C(N)=O (stereo not shown)", "target or system": "Streptococcus pneumoniae", "assay": "microbial growth", "conditions": "clinical isolate", "measurement": "MIC90", "value": "7.8 ng/mL"}
{"SMILES": "Cc1ncsc1-c1ccc(C(C)NC(=O)C2CC(O)CN2C(=O)C(NC(=O)CCCCCCCCCCN2CCCC(Nc3ncc(Cl)c(Nc4ccccc4S(=O)(=O)C(C)C)n3)C2)C(C)(C)C)cc1 (stereo not shown)", "target or system": "22Rv1", "assay": "RNA-seq, item: RGL4 mRNA", "conditions": "concentration not given", "scale": "baseline: DMSO", "measurement": "log2 fold change", "value": -1.48}
{"SMILES": "COc1cc(O)ccc1CCC(c1ccc(O)cc1)c1cc2c(c(C)c1O)OC(c1ccc(O)cc1)CC2 (mixture of isomers)", "assay": "item: 12-HETE", "test system": "human whole blood", "conditions": "0.3 µM, together with: Escherichia coli", "measurement": "amount", "value": "29600 ± 5020 pg/mL blood"}
{"SMILES": "COC1CN([C@H]2CC[C@H]([C@@]3(C)Oc4c(Cl)cc(C(=O)NCc5c(SC)cc(C)[nH]c5=O)c(C)c4O3)CC2)C1", "assay": "RNA-seq, item: FNBP1L mouse homolog", "test system": "mouse, HT-1376 xenograft, whole blood", "conditions": "dose not given", "scale": "baseline: vehicle", "measurement": "log2 fold change", "value": 2.62}
{"SMILES": "CNS(=O)(=O)Nc1nccc(Cc2c(C)c3ccc(Oc4ncccc4F)cc3oc2=O)c1F", "target or system": "SNU-423", "assay": "cell viability", "conditions": "7 days", "measurement": "IC50", "value": "443 nM"}
{"SMILES": "CN1CCC[C@]1(C)/C=C/S(=O)(=O)NC(=O)Nc1c2c(cc3c1CCC3)CCC2", "test system": "human, whole blood ex vivo", "conditions": "50 mg single dose, 3 h, single ascending dose, together with: LPS and ATP", "measurement": "IL-1β inhibition", "value": "98.9%"}
{"SMILES": "CN1CCCNC(=O)c2cccc(c2)C(=O)NCCCN(C)CCCNc2cccc3c2C(=O)c2cccc(c2C3=O)NCCC1", "target or system": "SAS", "assay": "RNA-Seq, item: PLOD2 mRNA", "conditions": "1 µM, 6 h", "scale": "baseline: untreated cells", "measurement": "log2 fold change", "value": -1.69}
{"SMILES": "COc1ccc(C(=O)CCc2cc(C(CCc3ccc(O)cc3OC)c3ccc(O)cc3)c(O)cc2OC)cc1 (racemic)", "test system": "human blood", "conditions": "1 µM, together with: A23187", "measurement": "PGD2 level", "value": "9 ± 5 pg/mL"}
{"SMILES": "CCN(CC)CC(=O)Nc1cccc(-n2cc(-c3ccc4ccc(-c5cn(-c6cccc(NC(=O)CN(CC)CC)c6)nn5)cc4c3)nn2)c1", "target or system": "RCC4", "assay": "PCR angiogenesis array, item: MMP14", "conditions": "5 x IC50, 6 h, normoxia", "scale": "baseline: untreated", "measurement": "fold regulation", "value": -1.62}
{"SMILES": "CC(=O)[O-].O.O.O.O.[Ni+2].[O-]c1ccc(Br)cc1C=NCCN1CCOCC1", "assay": "superoxide scavenging", "conditions": "200 µM", "measurement": "inhibition", "value": "52.5%"}
{"SMILES": "Nc1ncc(-c2cc(-c3cnn(CC(F)(F)F)c3)ncc2F)nc1C(=O)NC1CNCC(F)C1 (stereo not shown)", "target or system": "p38-beta", "assay": "KINOMEscan competition binding", "conditions": "1 µM", "scale": "baseline: DMSO control", "measurement": "remaining binding", "value": "94%"}
{"SMILES": "CC(C)c1ccc(N(C)c2ccc3c(c2)OCC[C@H]3CNc2cnccc2C(=O)O)cc1", "target or system": "WM-115", "assay": "cell growth or viability, ATP luminescence", "conditions": "7 days", "measurement": "IC50", "value": "478 nM"}
{"SMILES": "C=CC(=O)Nc1cccc(Cn2ncc3cnc(Nc4cnn(CCOC)c4)nc32)c1", "target or system": "EPHA6 human", "assay": "binding, KINOMEscan", "conditions": "100 nM", "scale": "lower = stronger binding", "measurement": "percent of control", "value": "100%"}
